Assay results of several laboratories.
Lines come from different studies, so protocols differ. Several values in a cell are separate wells, animals, samples, runs or records. ± gives the spread as reported.
Sequence of UniProt Q9Y5S2 (whole entry, looked up): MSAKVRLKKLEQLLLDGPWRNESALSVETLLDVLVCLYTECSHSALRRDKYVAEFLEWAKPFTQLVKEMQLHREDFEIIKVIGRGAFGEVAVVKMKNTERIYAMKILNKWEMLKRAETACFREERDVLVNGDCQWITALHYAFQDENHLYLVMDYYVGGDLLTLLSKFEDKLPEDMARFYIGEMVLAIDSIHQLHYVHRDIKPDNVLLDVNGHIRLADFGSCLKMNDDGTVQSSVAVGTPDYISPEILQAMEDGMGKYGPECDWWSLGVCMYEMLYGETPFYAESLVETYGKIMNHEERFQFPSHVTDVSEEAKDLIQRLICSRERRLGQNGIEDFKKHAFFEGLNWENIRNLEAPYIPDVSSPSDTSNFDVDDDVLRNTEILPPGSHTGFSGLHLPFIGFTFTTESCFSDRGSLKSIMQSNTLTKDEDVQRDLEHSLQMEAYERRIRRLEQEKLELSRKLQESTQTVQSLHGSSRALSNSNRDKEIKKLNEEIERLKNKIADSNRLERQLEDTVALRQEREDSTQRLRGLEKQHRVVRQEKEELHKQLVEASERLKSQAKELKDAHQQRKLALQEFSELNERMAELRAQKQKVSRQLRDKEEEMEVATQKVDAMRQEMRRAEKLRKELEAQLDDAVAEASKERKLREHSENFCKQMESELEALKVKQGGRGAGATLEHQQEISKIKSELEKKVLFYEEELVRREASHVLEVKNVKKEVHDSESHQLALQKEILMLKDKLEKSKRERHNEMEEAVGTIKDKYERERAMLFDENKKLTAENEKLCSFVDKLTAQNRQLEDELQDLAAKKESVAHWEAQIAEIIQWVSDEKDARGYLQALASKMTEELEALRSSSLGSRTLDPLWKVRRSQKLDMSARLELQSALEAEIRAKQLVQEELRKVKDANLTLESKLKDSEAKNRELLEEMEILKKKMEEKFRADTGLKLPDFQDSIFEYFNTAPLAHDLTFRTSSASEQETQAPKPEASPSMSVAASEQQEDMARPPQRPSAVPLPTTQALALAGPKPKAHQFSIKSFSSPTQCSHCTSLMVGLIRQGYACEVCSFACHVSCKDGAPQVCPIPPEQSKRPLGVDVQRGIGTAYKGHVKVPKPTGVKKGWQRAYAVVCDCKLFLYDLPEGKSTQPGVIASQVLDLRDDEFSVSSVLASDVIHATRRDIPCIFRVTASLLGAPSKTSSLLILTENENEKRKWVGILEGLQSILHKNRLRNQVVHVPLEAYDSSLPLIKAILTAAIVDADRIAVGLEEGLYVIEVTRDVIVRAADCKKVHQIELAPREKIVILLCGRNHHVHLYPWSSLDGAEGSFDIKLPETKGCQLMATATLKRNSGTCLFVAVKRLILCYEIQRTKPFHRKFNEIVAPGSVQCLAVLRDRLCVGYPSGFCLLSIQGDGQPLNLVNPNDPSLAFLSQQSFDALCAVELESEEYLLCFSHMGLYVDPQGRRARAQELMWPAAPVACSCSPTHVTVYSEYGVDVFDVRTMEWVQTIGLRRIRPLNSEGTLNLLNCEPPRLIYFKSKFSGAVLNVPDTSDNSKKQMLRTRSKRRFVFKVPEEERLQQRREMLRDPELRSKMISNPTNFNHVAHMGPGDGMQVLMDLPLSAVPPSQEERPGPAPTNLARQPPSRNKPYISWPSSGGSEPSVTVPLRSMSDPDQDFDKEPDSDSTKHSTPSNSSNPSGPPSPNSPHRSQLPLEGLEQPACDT
Sequence of UniProt Q9NWZ3 (whole entry, looked up): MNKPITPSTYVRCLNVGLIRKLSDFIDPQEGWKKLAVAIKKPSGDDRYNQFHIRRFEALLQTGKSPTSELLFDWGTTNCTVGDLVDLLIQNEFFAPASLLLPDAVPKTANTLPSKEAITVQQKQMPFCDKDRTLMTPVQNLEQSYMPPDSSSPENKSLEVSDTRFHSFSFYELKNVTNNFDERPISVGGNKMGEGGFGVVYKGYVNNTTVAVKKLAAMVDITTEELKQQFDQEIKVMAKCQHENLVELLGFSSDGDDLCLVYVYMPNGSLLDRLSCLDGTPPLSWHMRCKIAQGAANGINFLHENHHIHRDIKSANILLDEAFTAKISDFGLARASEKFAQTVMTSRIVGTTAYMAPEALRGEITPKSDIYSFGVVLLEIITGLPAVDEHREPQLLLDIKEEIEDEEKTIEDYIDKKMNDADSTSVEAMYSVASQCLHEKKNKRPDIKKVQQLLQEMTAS

`O=C1NC(=O)c2c1c1cc(F)c[n+]3c1c1c2c2cc(O)ccc2[n]1[Ru-4]312([N]=C=S)[S+]3CC[S+]1CC[S+]2CC3` (stereo not drawn) has a remaining activity of 96% (CDC42BPB (Homo sapiens, UniProt Q9Y5S2); enzyme activity; 100 nM, human enzyme, together with: 10 µM ATP; relative to: untreated).
`CS(C)(=O)=Nc1ccc(-c2ccc(-c3nc4cc(O[C@@H]5CO[C@H]6[C@@H]5OC[C@H]6O)[nH]c4cc3F)cc2)cc1` gave an inhibition of 9% (kainate receptor; binding; 10 µM).
With `CNC(=O)C[C@H](Cc1ccc(F)cc1)NC(=O)[C@@H](Cc1ccc(Cl)cc1Cl)NC(=O)[C@H](N)Cc1ccccc1C#N` the cytosolic concentration was 17.7 µM and 8.4 µM and 15.9 µM (HEK-293T; LC-MS, digitonin-released cytosol; 10 µM, 4 h).
`COc1cc(/C=C/C(=O)Oc2ccc(C(F)(F)F)c(C(F)(F)F)c2)ccc1OC(C)=O` has a CC50 of 76.7 µM (HaCaT; cell growth or viability, MTT; 24 h).
For `CCOc1ccc(CN2CC[C@H]2C(=O)NC)cc1-c1cccc(C(=O)NC[C@@H]2COC(C)(C)O2)c1`, the viability was 1.06 and 1.13 and 1 (Huh-7-ACE2; CellTiter-Glo; 0.0244 µM, 48 h, unit not given; relative to: DMSO).
With `COc1ccccc1-c1n[nH]c2nc(NC3CCN(C(=O)Cc4ccc(F)cc4F)CC3)ncc12` the relative abundance was 1 (bead binding, competition bead pull-down, refers to: LINJ.35.1420; Leishmania donovani extract; 10 µM; relative to: vehicle).
`CC[C@H](C)[C@H](NC(=O)[C@@H]1CCCN1C(=O)CNC(=O)[C@H](CC(C)C)NC(=O)[C@H](CCCCN)NC(=O)[C@H](CCCNC(=N)N)NC(=O)[C@H](Cc1c[nH]c2ccccc12)NC(=O)[C@H](C)NC(=O)[C@H](CC(N)=O)NC(=O)[C@H](CCCCN)NC(=O)[C@H](CC(C)C)NC(=O)[C@H](CCCCN)NC(=O)[C@H](CC(N)=O)NC(=O)[C@H](CCCNC(=N)N)NC(=O)[C@H](C)NC(=O)[C@H](CCCNC(=N)N)NC(=O)[C@H](CCCNC(=N)N)NC(=O)[C@H](Cc1ccccc1)NC(=O)[C@H](Cc1c[nH]c2ccccc12)NC(=O)CN)C(=O)N[C@H](C(=O)NCC(=O)N1CCC[C@H]1C(=O)N[C@@H](CC(C)C)C(=O)N[C@@H](CC(C)C)C(=O)N[C@H](C(=O)N[C@@H](CCCNC(=N)N)C(=O)O)[C@@H](C)O)C(C)C` has an HC50 of 3.05 log10 µg/mL (rat erythrocytes; haemolysis; 1 h, 37 °C, 2% erythrocytes in PBS).
For `O=C1NC2(CC2)COc2ncc(F)cc2[C@H]2COCCN2c2ccn3ncc1c3n2`, the total cholesterol was 1.34 ± 0.25 mmol/L (Sprague-Dawley rat, male, serum; oral, 20 mg/kg/day, 4 weeks daily, end of treatment).
The viability of `CC[C@H](C)[C@H](NC(=O)[C@H](C)NC(=O)[C@H](CCCCN)NC(=O)[C@H](CCCCN)NC(=O)[C@@H](N)CCCNC(=N)N)C(=O)N[C@@H](CCCCN)C(=O)N[C@@H](CC(C)C)C(=O)N[C@H](C(=O)N[C@@H](CCCCN)C(=O)N[C@@H](CCCCN)C(=O)N[C@@H](CC(C)C)C(=O)N[C@H](C(=O)N[C@@H](CCCCN)C(=O)N[C@@H](CCCCN)C(=O)N[C@@H](CC(C)C)C(=O)N[C@@H](CCCCN)C(=O)N[C@@H](CCCCN)C(=O)N[C@@H](C)C(=O)N[C@@H](CC(C)C)C(=O)N[C@@H](CCCCN)C(=O)O)C(C)C)C(C)C` is reported as 78% (HeLa; cell growth or viability, MTT; 16 µg/mL).
`C[C@H](NC(=O)[C@@H](O)c1cc(F)cc(F)c1)C(=O)N[C@@H]1C(=O)N(C)c2ccccc2-c2ccccc21` has a CC50 of 1370 µM (NHDF; cell viability, CellTiter-Glo; 48 h, uninfected).
`CC(=O)NCC(=O)N[C@@H](CCCNC(=N)N)C(=O)N[C@@H](CCCCN)C(=O)N[C@@H](CCCCN)C(=O)N[C@@H](CCCNC(=N)N)C(=O)N[C@@H](CCCNC(=N)N)C(=O)N[C@@H](CCC(N)=O)C(=O)N[C@@H](CCCNC(=N)N)C(=O)N[C@@H](CCCNC(=N)N)C(=O)N[C@@H](CCCNC(=N)N)C(=O)N1CCC[C@H]1C(=O)N[C@@H](CCC(N)=O)C(N)=O` gave a concentration of 39.7 nM and 31.8 nM and 29.4 nM (HEK-293T; subcellular fractionation LC-MS; cytoplasmic fraction; 20 µM, 2 h).
`CC[C@H](C)[C@H](NC(=O)[C@@H](NC(=O)[C@H](CCCCN)NC(=O)[C@H](CCCCN)NC(=O)[C@@H](NC(=O)[C@H](Cc1c[nH]c2ccccc12)NC(=O)[C@H](CCCCN)NC(=O)[C@H](CCCCN)NC(=O)[C@H](CC(C)C)NC(=O)[C@H](CCCNC(=N)N)NC(=O)[C@H](Cc1ccccc1)NC(=O)[C@@H](N)C(C)C)[C@@H](C)CC)C(C)C)C(N)=O`: “minimum haemolytic concentration” > 256 µM (sheep red blood cells; 10% haemolysis; 1 h, 37 °C).
`CN(C)[C@H]1C[C@@]23CC[C@@]4(O2)C(=CC[C@]2(C)[C@@H](c5ccc6ccncc6c5)CC[C@H]24)C=C3[C@@H](O)[C@@H]1O` has an inhibition of 9.8% (IRAK4 (Homo sapiens, UniProt Q9NWZ3); ATP probe labelling, inhibitor, KiNativ profiling; 1 µM).
With `CC[C@H](C)[C@H](NC(=O)[C@H](CCCCN)NC(=O)[C@H](CC(N)=O)NC(=O)CNC(=O)[C@@H](NC(=O)[C@H](C)NC(=O)[C@H](CCCNC(=N)N)NC(=O)[C@H](CC(C)C)NC(=O)[C@H](CCCCN)NC(=O)[C@H](CCCCN)NC(=O)[C@H](CCCCN)NC(=O)[C@H](C)NC(=O)[C@H](CCCCN)NC(=O)[C@@H]1CSSC[C@H](NC(=O)[C@H](CCCNC(=N)N)NC(=O)CN)C(=O)N[C@@H](CC(N)=O)C(=O)N[C@@H](CC(C)C)C(=O)N[C@@H](CC(C)C)C(=O)N1)C(C)C)C(=O)N[C@@H](CCCCN)C(=O)N[C@@H](CCC(=O)O)C(=O)N[C@H](C(=O)N[C@@H](CCCCN)C(=O)N[C@@H](CC(N)=O)C(=O)N[C@H](C(=O)N[C@H](C(=O)N[C@@H](Cc1ccccc1)C(=O)N[C@@H](CC(N)=O)C(=O)N[C@@H](CCCNC(=N)N)C(=O)O)C(C)C)C(C)C)[C@@H](C)CC` the hemolysis was -5.14 ± 3.45% (human erythrocytes; 5 µM, 30 min, 37 °C; relative to: Triton X-100).
`CCN(CCCCOc1ccc(CCC(=O)N2CCC(Cc3ccccc3)CC2)cc1OC)Cc1ccccc1` has a Papp(B-A) of 13.3 ± 1.29 ×10⁻⁶ cm/s (Caco-2 monolayer; 10 µM, 120 min).
